Results from different studies.
Parts stem from different laboratories: compare values within a part only.

Study 1 — method: protein-binding microarray; form: double-stranded DNA, one strand shown; sample: in vitro; tested at: 2200 nM top; setting: 60-bp whole probe; added: salmon DNA 0.4 mg/ml; baseline: random background probes; reading: higher = stronger binding
Target: Interferon regulatory factor 7, full length, phosphomimetic (IRF7, Homo sapiens, UniProt Q92985, residues 1-503, S471D/S472D/S475D/S476D/S477D/S483D/S484D/S487D)
Construct (chain): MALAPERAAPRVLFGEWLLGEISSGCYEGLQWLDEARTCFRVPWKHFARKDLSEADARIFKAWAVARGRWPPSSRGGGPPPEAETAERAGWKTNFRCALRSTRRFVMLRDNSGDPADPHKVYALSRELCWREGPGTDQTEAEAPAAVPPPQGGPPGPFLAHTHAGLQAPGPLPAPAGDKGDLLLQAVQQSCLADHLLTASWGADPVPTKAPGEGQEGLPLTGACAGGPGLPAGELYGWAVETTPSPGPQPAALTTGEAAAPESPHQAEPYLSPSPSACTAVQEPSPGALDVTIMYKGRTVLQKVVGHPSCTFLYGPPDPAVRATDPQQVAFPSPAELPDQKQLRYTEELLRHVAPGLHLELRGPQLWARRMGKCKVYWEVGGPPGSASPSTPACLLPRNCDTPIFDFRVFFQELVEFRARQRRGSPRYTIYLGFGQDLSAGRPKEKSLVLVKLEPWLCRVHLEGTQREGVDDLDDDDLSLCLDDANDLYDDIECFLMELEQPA
| Sequence | fitted relative affinity |
| --- | --- |
| GCCTAGCACTTAGATATAAGTCTCGATTAGTGCTAGGTCTTGATTCGCTTGACGCTGCTG | -0.226 z-score |
| GCCTAGCACTCAATATTATATCTGTGACTGTGCTAGGTCTTGATTCGCTTGACGCTGCTG | 0.623 z-score |
| GCCTAGCACGACGCTATCAGTTTCGAGACGTGCTAGGTCTTGATTCGCTTGACGCTGCTG | 3.48 z-score |

Study 2 — method: protein binding microarray; form: double-stranded DNA, one strand shown; sample: in vitro; tested at: not given; baseline: not given; reading: higher = stronger binding
Target: Histone acetyltransferase KAT6A, winged helix 1, GST fusion (KAT6A, Homo sapiens, UniProt Q92794, residues 1-85)
Setting: 8-mer, flanks averaged, mean of 2 arrays, mostly near background
Construct (chain): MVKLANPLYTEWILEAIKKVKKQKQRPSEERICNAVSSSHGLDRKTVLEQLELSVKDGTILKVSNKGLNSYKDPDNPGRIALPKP
| Sequence | E-score |
| --- | --- |
| TAGCTGGA | -0.302 |
| CGCTACCG | 0.391 |
| ACTTAACC | -0.239 |
| AAACCTAT | 0.00619 |

Study 3 — method: RNA Bind-n-Seq; form: RNA; sample: in vitro; tested at: 200 nM; setting: whole 134-nt RNA, ends assumed; added: 150 mM KCl; baseline: input library; reading: higher = stronger binding
Target: Ras GTPase-activating protein-binding protein 1, full length (G3BP1, Homo sapiens, UniProt Q13283)
Sequence of UniProt Q13283 (whole entry, looked up): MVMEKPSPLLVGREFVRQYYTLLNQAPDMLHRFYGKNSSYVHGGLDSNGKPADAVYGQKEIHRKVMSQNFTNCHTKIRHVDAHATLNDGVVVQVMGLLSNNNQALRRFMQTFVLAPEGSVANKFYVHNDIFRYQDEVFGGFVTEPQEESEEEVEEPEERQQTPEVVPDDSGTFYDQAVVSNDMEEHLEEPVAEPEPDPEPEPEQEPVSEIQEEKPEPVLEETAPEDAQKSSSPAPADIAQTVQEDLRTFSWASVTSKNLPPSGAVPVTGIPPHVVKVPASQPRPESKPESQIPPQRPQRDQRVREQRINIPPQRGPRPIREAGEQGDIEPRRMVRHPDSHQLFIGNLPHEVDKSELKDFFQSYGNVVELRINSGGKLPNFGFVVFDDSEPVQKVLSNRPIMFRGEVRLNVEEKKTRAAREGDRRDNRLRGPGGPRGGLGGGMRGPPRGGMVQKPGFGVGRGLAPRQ
All sequences stand within: GGGAGUUCUACAGUCCGACGAUC … UGGAAUUCUCGGGUGUCAAGG
| Sequence | log2 enrichment |
| --- | --- |
| UGGCCCUGGUGGCAUGCGGGGAGGAAGAGGUGGUCUCAUGGAUCGUGGUGGUCCCGGUGGAAUGUUCAGAGGUGGCCGUGGUGGAGACAG | 0.43 |
| CAAGUCCUGUGCUACACAUCGUAUGUACCGAAUCGGGUUUGGGUUUGGGGUUUGGGAAAGUAUUAUGUUACGCCGUUCGGAUCUGCACUU | 0.528 |
| CCUGUGCUACACAUCGUAUGUACCGAAUCGGGAAAAAAGGGGAAAAAAGGGGAAAAAAGGAAAGUAUUAUGUUACGCCGUUCGGAUCUGC | -0.599 |
| CCUGUGCUACACAUCGUAUGUACCGAAUCGGGGAAAAAAAGGGGAGGGGUUUUUUUGGGGAAAGUAUUAUGUUACGCCGUUCGGAUCUGC | 0.192 |
| CCUGUGCUACACAUCGUAUGUACCGAAUCGGGGUUUGGGGAAAAAAAGGGGAAAAAGGGGAAAGUAUUAUGUUACGCCGUUCGGAUCUGC | 0.00633 |

Further values, each from its own experiment
| Molecule | target | assay | system | conditions | how to read | measurement | result |
| --- | --- | --- | --- | --- | --- | --- | --- |
| PhoQ, residues 284 288 289 292 302 303 SSYNSA | PhoP, residues 12 14 15 18 19 AQALL (Escherichia coli, UniProt P23836) | Sort-seq, item: YFP reporter | E. coli | PhoQ-PhoP variant library, added: 10 µM Mg2+ | baseline: high Mg2+ state, higher = stronger signaling | fold induction | 1.67 |

Some of these lines once more (study 3):
| Sequence | log2 enrichment |
| --- | --- |
| CAAGUCCUGUGCUACACAUCGUAUGUACCGAAUCGGGUUUGGGUUUGGGGUUUGGGAAAGUAUUAUGUUACGCCGUUCGGAUCUGCACUU | 0.528 |
